Published values of several laboratories.
Lines come from different studies, so protocols differ. Several values in a cell are separate wells, animals, samples, runs or records. Numbers after ± are the reported error.
Chain of UniProt P31323 (whole entry, looked up): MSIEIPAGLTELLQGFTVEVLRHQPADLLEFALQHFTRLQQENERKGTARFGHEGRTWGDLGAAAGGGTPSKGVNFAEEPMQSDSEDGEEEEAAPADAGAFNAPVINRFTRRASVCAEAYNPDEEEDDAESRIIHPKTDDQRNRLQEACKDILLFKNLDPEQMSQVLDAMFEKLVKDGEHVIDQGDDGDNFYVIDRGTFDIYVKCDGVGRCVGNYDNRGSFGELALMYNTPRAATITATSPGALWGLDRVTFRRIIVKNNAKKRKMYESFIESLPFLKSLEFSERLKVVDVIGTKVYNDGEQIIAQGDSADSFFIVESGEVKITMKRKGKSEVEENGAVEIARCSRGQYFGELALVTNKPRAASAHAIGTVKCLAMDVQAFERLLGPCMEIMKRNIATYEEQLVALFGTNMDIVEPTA
Chain of UniProt P11802 (whole entry, looked up): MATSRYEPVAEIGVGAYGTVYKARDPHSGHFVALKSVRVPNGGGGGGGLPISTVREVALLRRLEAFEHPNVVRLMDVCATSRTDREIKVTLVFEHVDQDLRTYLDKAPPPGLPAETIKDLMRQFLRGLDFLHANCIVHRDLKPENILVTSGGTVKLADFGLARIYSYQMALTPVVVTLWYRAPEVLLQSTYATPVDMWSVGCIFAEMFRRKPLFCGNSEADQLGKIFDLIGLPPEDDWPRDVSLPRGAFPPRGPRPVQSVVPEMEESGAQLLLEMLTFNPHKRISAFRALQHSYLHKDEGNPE
Chain of UniProt P43116 (whole entry, looked up): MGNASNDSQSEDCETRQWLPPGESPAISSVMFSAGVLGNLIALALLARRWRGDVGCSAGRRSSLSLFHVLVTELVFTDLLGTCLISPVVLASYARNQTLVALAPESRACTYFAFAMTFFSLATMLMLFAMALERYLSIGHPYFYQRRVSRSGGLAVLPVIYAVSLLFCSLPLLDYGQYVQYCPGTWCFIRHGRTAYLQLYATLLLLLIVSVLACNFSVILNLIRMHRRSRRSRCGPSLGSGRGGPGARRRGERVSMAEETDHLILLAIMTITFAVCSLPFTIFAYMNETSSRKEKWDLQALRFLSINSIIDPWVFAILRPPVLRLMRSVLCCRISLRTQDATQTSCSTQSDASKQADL

`O=C1Nc2cc3[nH]nc(-c4ccncc4)c3cc2CN1Cc1ccccc1`: “patients with vitreous floaters” 0% (CTCAE v4.03; human, relapsed or refractory advanced solid tumours; intravenous, 4.8 mg/kg).
For `C[C@@H](O)[C@H](NC(=O)[C@@H]1CSSC[C@H](NC(=O)[C@@H](Cc2ccccc2)NC(=O)CN2CCN(CC(=O)[O-])CCN(CC(=O)[O-])CCN(CC(=O)[O-])CC2)C(=O)N[C@@H](Cc2ccc(O)cc2)C(=O)N[C@H](Cc2c[nH]c3ccccc23)C(=O)N[C@@H](CCCCN)C(=O)N[C@@H]([C@@H](C)O)C(=O)N1)C(=O)O.[177Lu+3]`, the retention was 42.1% (MEC1 treated with 200 µM zebularine; gamma counter; 30 min efflux after 2 h loading).
`O=S(=O)(Nc1ccccc1)c1ccc(NC(=S)Nc2ccccc2)cc1`: “mean platelet volume” 4.93 fL (mouse, female, blood; oral, 5 mg/kg daily, 14 days).
For `OC[C@H]1OC(O)[C@H]([18F])[C@@H](O)[C@@H]1O` (stereo partly drawn), “fraction of dose remaining” read roughly 50% (PET/CT; Sprague-Dawley rat, nasal cavity; intranasal, dose not given, 20 min; reference: dose).
`O=Cc1cn(Cc2cccc(Cl)c2)c2ccccc12` — result for “bile ducts per triad”: 1 and 2 and 1.8 (F344 rat, male, liver; oral, 150 mg/kg/day, 2 days).
With `CC[C@H](C)[C@H](NC(=O)[C@H](Cc1ccccc1)NC(=O)[C@H](CCC(=O)O)NC(=O)[C@H](CCCNC(=N)N)NC(=O)[C@H](C)NC(=O)[C@H](C)NC(=O)[C@H](CCC(N)=O)NC(=O)[C@H](CCC(=O)O)NC(=O)[C@H](CCC(=O)O)NC(=O)[C@H](CC(C)C)NC(=O)[C@H](Cc1ccc(O)cc1)NC(=O)[C@H](CO)NC(=O)[C@H](CO)NC(=O)[C@@H](NC(=O)[C@H](CC(=O)O)NC(=O)[C@H](CO)NC(=O)[C@@H](NC(=O)[C@H](Cc1ccccc1)NC(=O)[C@@H](NC(=O)CNC(=O)[C@H](CCC(=O)O)NC(=O)[C@H](C)NC(=O)CCc1cnc[nH]1)[C@@H](C)O)[C@@H](C)O)C(C)C)C(=O)N[C@@H](C)C(=O)N[C@@H](Cc1c[nH]c2ccccc12)C(=O)N[C@@H](CC(C)C)C(=O)N[C@H](C(=O)N[C@@H](CCCNC(=N)N)C(=O)NCC(=O)N[C@@H](CCCNC(=N)N)C(=O)N[C@@H](CCCCNC(=O)COCCOCCNC(=O)COCCOCCNC(=O)CC[C@H](NC(=O)CCCCCCCCCCCCCCCCC(=O)O)C(=O)O)C(=O)NCC(=O)NCC(=O)N[C@@H](CO)C(=O)N[C@@H](CCCCNC(=O)[C@H](CCCCNC(=O)[C@H](CCCCNc1c(NCCCCCN(O)C(=O)CCC(=O)NCCCCCN(O)C(=O)CCC(=O)NCCCCCN(O)C(C)=O)c(=O)c1=O)Nc1c(NCCCCCN(O)C(=O)CCC(=O)NCCCCCN(O)C(=O)CCC(=O)NCCCCCN(O)C(C)=O)c(=O)c1=O)NC(=O)[C@H](CCCCNc1c(NCCCCCN(O)C(=O)CCC(=O)NCCCCCN(O)C(=O)CCC(=O)NCCCCCN(O)C(C)=O)c(=O)c1=O)Nc1c(NCCCCCN(O)C(=O)CCC(=O)NCCCCCN(O)C(=O)CCC(=O)NCCCCCN(O)C(C)=O)c(=O)c1=O)C(=O)O)C(C)C` [zirconium-89 labelled] the tissue uptake was 0.423 %ID/g (ex vivo gamma counting; male Sprague-Dawley rats, blood; intravenous, 1 nmol, 24 h).
For `CC[C@H](C)[C@H](NC(=O)[C@H](Cc1ccccc1)NC(=O)[C@H](CCC(=O)O)NC(=O)[C@H](CCCNC(=N)N)NC(=O)[C@H](C)NC(=O)[C@H](C)NC(=O)[C@H](CCC(N)=O)NC(=O)[C@H](CCC(=O)O)NC(=O)[C@H](CCC(=O)O)NC(=O)[C@H](CC(C)C)NC(=O)[C@H](Cc1ccc(O)cc1)NC(=O)[C@H](CO)NC(=O)[C@H](CO)NC(=O)[C@@H](NC(=O)[C@H](CC(=O)O)NC(=O)[C@H](CO)NC(=O)[C@@H](NC(=O)[C@H](Cc1ccccc1)NC(=O)[C@@H](NC(=O)CNC(=O)[C@H](CCC(=O)O)NC(=O)[C@H](C)NC(=O)CCc1c[nH]cn1)[C@@H](C)O)[C@@H](C)O)C(C)C)C(=O)N[C@@H](C)C(=O)N[C@@H](Cc1c[nH]c2ccccc12)C(=O)N[C@@H](CC(C)C)C(=O)N[C@H](C(=O)N[C@@H](CCCNC(=N)N)C(=O)NCC(=O)N[C@@H](CCCNC(=N)N)C(=O)N[C@@H](CCCCNC(=O)COCCOCCNC(=O)COCCOCCNC(=O)CC[C@H](NC(=O)CCCCCCCCCCCCCCCCC(=O)O)C(=O)O)C(=O)NCC(=O)NCC(=O)N[C@@H](CO)C(=O)N[C@@H](CCCCNc1c(NCCCCCN(O)C(=O)CCC(=O)NCCCCCN(O)C(=O)CCC(=O)NCCCCCN(O)C(C)=O)c(=O)c1=O)C(=O)O)C(C)C` [zirconium-89 labelled], the tissue uptake was 0.91 %ID/g (rat, liver; iv, 3 nmol/kg, 72 h, ex vivo).
For `Cc1cccc(Cn2nc(C3CC3)c3c(NC(=O)c4cnc5cc(OCCN6CCN(C)CC6)ccn45)cccc32)n1`, “adverse events incidence” read 27.3% (refers to: Fatigue; human platinum-resistant ovarian cancer; oral, dose not given, all-causality).
For `CC[C@H](C)[C@H](NC(=O)[C@@H](N)CCCCN)C(=O)N[C@@H](Cc1ccccc1)C(=O)N1CCC[C@H]1C(=O)N[C@H](C(=O)N1CCC[C@H]1C(=O)N[C@@H](CC(C)C)C(=O)N[C@@H](CCCCN)C(=O)N[C@@H](Cc1ccccc1)C(=O)O)C(C)C`, the IC50 was 4.23 µM (HLA class I histocompatibility antigen, A alpha chain, allele A*02:01 (Homo sapiens, UniProt P04439); binding).
`Clc1nc[n]([Au][PH](c2ccccc2)(c2ccccc2)c2ccccc2)c1Cl` gave a terminal half-life of 63.4 h (NCG mouse, plasma; intraperitoneal, 10 mg/kg).
`CC[C@H](C)[C@@H]1NC(=O)[C@@H]2CCCN2C(=O)[C@H](CC(C)C)NC(=O)[C@H](CC(C)C)NC(=O)CNC(=O)[C@@H](NC(=O)[C@@H](NC(=O)[C@H](CC(=O)O)NC(=O)CNC(=O)[C@@H](NC(=O)[C@H](C)NC(=O)CNC(=O)[C@H](CCCCN)NC(=O)[C@H](CC(C)C)NC(=O)[C@H](CC(C)C)NC(=O)[C@H](CCCCN)NC(=O)CNC(=O)[C@@H](NC(=O)[C@@H](N)CC(C)C)C(C)C)C(C)C)C(C)C)CSSC[C@@H](C(=O)O)NC1=O` — result for “log2 fold change”: -2.67 (RNA-seq, refers to: Irak3; mouse, traumatic brain injury model, frontal cortex and hippocampus; dose not given; reference: TBI alone).
With `CCN1[C@@H](C(=O)NC23CCC(C(=O)O)(CC2)CC3)[C@H](c2cccc(Cl)c2F)[C@]2(C(=O)Nc3cc(Cl)ccc32)C12CCCCC2` the Leukopenia incidence was 75% (patients with advanced solid tumours; oral, 150 mg).
`CO[C@H]1C[C@@H]2CC[C@@H](C)[C@@](O)(O2)C(=O)C(=O)N2CCCC[C@H]2C(=O)O[C@H]([C@H](C)C[C@@H]2CC[C@@H](OC(=O)NCCOCCOCCOCCOCCOCCOCCOCCOCCC(=O)N3CCc4cc(Cn5nc(-c6ccc7oc(N)nc7c6)c6c(N)ncnc65)ccc4C3)[C@H](OC)C2)C[C@@H](O)[C@H](C)/C=C(\C)[C@@H](O)[C@@H](OC)C(=O)[C@H](C)C[C@H](C)/C=C/C=C/C=C/1C`: “decreased appetite leading to dose reduction” 0% (patients with advanced solid tumours; intravenous, 16 mg weekly, grade 3 or higher).
`CC(C)C[C@H](NC(=O)[C@H](CCCCN)NC(=O)OCC1c2ccccc2-c2ccccc21)C(=O)N[C@H](C(=O)N[C@@H](Cc1ccccc1)C(=O)N[C@@H](Cc1ccccc1)C(=O)N[C@@H](CCCCN)C(=O)NCC(=O)N[C@@H](Cc1ccccc1)C(=O)N[C@@H](C)C(=O)N[C@@H](Cc1c[nH]c2ccccc12)C(=O)N[C@@H](CC(N)=O)C(=O)N[C@H](C(=O)N[C@H]1CSSC[C@@H](C(=O)N[C@@H](Cc2c[nH]cn2)C(=O)N[C@@H](CCCNC(=N)N)C(=O)N[C@@H](CCCNC(=N)N)C(=O)N[C@@H](C)C(=O)N[C@@H](CC(N)=O)C(N)=O)NC(=O)[C@H](C(C)C)NC(=O)[C@H](CCCNC(=N)N)NC(=O)[C@H](C(C)C)NC(=O)CNC(=O)[C@H](CC(N)=O)NC(=O)[C@H](CCCNC(=N)N)NC(=O)[C@H](Cc2ccc(O)cc2)NC(=O)[C@H](C(C)C)NC1=O)C(C)C)C(C)C` — result for “secondary structure content”: 5.99% (circular dichroism, refers to: α-Helix; PBS; 80 µM, pH 7.4, added: LPS 1 µM).
With `C[C@H]1CN(c2n[nH]c3nc(N[C@H]4CC[C@H](NS(=O)(=O)CCC(F)(F)F)CC4)ncc23)CCO1` the relative abundance was 1.01 (PRKAR2B (Homo sapiens, UniProt P31323); inhibitor, Kinobeads competition profiling; 0.032 µM; reference: vehicle).
`NCCCC[C@@H]1NC(=O)[C@@H](Cc2c[nH]c3ccccc23)NC(=O)[C@H](c2ccccc2)NC(=O)[C@@H]2C[C@@H](OC(=O)NCCN)CN2C(=O)[C@H](Cc2ccccc2)NC(=O)[C@H](Cc2ccc(OCc3ccccc3)cc2)NC1=O`: “subjects with feeling hot” 2% (healthy human volunteers; 600 µg twice daily).
`CC(C)NCCCC[C@@H]1NC(=O)[C@H](Cc2ccc(O)cc2)NC(=O)[C@H](Cc2ccccc2)NC(=O)CC[C@H](C(=O)N[C@@H](CCCCNC(C)C)C(=O)N[C@@H](CCCCNC(=O)[C@H](CCC(=O)O)NC(=O)[C@H](CCC(=O)O)NC(=O)[C@H](CCC(=O)O)NC(=O)CN2CCN(CC(=O)O)CCN(CC(=O)O)CC2)C(N)=O)NC(=O)CNC(=O)[C@H](Cc2ccc3ccccc3c2)NC(=O)[C@@H](CCCNC(=N)N)NC1=O` [fluorine-18 labelled] — result for “intact parent fraction”: 95.4 ± 1.47% (mouse, urine; 75 min, post injection).
Under “patients with adverse event”, `C[C@@H]1OC(=O)NN=C1c1ccc(-c2ccc(F)cc2)c(C(F)(F)F)c1` is recorded as 20% (phase I trial, refers to: Dyspnoea worst grade 2; human patients; dose not given, all dose groups).
`COc1ccc(N2C(=O)N(c3c(C)cccc3Cl)Cc3cnc(Nc4ccc(C5CCN(C)CC5)cc4OC)nc32)nc1` has an inhibition of 7% (CDK4 (Homo sapiens, UniProt P11802); kinase activity, inhibitor; 0.5 µM, complex with -CYCLIND).
`O=C(Nc1cnccc1Cl)N1CCN(Cc2ccc3c(c2)OC(F)(F)O3)CC1` gave an inhibition of -3% (PTGER2 (Homo sapiens, UniProt P43116); radioligand binding, inhibitor; 10 µM, human, added: [3H]prostaglandin E2).
`N#C[C@@]1(n2ccc(N)nc2=O)O[C@H](CO)[C@@H](O)[C@H]1O` gave an MRT of 2.4 h (CD-1 mouse, plasma; oral, 30 mg/kg).

Repeated from above:
`O=S(=O)(Nc1ccccc1)c1ccc(NC(=S)Nc2ccccc2)cc1`: “mean platelet volume” 4.93 fL (mouse, female, blood; oral, 5 mg/kg daily, 14 days).
